Experimental data from different studies.
A part holds a random share of what one study measured.

Sample 1 — technique: RNA Bind-n-Seq; form: RNA; sample: in vitro; concentration: 365 nM; relative to: no-protein control; reading: higher = stronger binding; endpoint: RBNS enrichment (R)
Target: RNA binding protein fox-1 homolog 2, RRM domain, GST-SBP tag (RBFOX2, Homo sapiens, UniProt O43251-10, residues 100-194)
Setting: natural RNA segment, single round, ends assumed
Constant ends, left off below: GGGAGUUCUACAGUCCGACGAUC … UGGAAUUCUCGGGUGCCAA
Oligonucleotide = ACCGUUCAGGCCACGCAAUAUGAGAAUGCAGUUUUUGUAGGAUUACAAAAAAAAAAAAAAGCCAUUAAUCUGCCAGUCAAGACUACAGUUAAAAUCCCCUUCGCACUGCA; value = 2.76
Oligonucleotide = ACGUCAUUUUGCAAAUUAGAACAGGACAAAUUUUAUGUUUCCGGGGCACAUAUGUUGUAUUGCAAAGCAUAUUUGGCAAGCAGUUCAUCACCAAGGCAGUAGCUAUGAUU; value = 0.814
Oligonucleotide = AAGUUGCAGCCUUUUUUAUAUUGCCUGCCAAAAUUUGAAGUAUUAGAAGAAAGUGUGCCAUGAGAGAAAAACUUAAGGAGUUUUGAAAAGUAAUGCAAAUAACAAAACUG; value = 0.535
Oligonucleotide = AUACAUAUUUUGAAAGAGGGGAAAUGUAGCAGAUAGUUCACAAGCUGCGGGUUGUAGCUAAAUAUUCCAUUUCUUUGAAAUCAUGUUUCUAAAUUCUUUACCAUCAGAAA; value = 0.487
Oligonucleotide = UUUCUCGGCCAACACAUUAAAACCAUUCUUGGAUUUCAAGUAGCCAACUUUGCCUUUUAUGUAUUCUUACAUAGUUUCCUCUUGAAGAAAAAAAAAGCAGAGUUUUUGUU; value = 0.499
Oligonucleotide = CUAUACAAGUGCACUUUGAUCUGUAAAUAGUUCUAAUCAAAGCAUAACAAAACACUGCUUCAAGAUUUACUUUUAAAUCUAAUUUAAGGGGUGUUUUUACUGUGUUUUUG; value = 0.447
Oligonucleotide = CCCACCCCCAUCCUGCUCCAGCGUUUCCUCUAACAGGGACCAGCUCUCCGCUUUGCCCCCACGGGGUUCCUCUAACCAGAACCAGCUUCCUAGCCUCGUAGAGACCAAAG; value = 0.638
Oligonucleotide = CUCGAGAUCAGAUCAUAACUCAUUUGCCUAGAGGCAGCAGAAAUCUGAUCCUGCUACUGGAGCUUAAAAUAACAAGUAAAGAAAAGUGUUAGAAACAAAGCUAAAAUUUU; value = 0.63
Oligonucleotide = GAGCGAGGCUACUCACUGGUAUCAGGUGGUACUGACAACCACCUGGUGCUGGUGGACCUGCGGCCCAAGGGCCUGGAUGGAGCUCGGGCUGAGCGGGUGCUAGAGCUUGU; value = 0.608
Oligonucleotide = UUGGCUCAGCUGUAUGAAGGUUGGACAGCCUGGGUGUGAAUGGCAAGACAGUAGAUGAGUCUGGUUAAGCGAGGUCAGACAUCCACCAGAAUCAACUCAGCCUCAGGCAU; value = 0.634
Oligonucleotide = GGUCAAUAGGGGAGGGUAGAUUAGCUGCUCCAGAAUUCAAUAAAGUGUAAUAUUUCUAACGGUGACUUUGACCUAUUCUGUAGUACAACUGUAAUAGCUAUUGGUCUUCA; value = 0.69
Oligonucleotide = CUAGAAUGAUGUACUCUACUUUCCCAAUAAGGUAGAAAUUUGGAAUCCAACGGAAUAUAAUCAGUUUUCAUUCAUUCCAGUGCCUAGUUAAAUCUAACCUGACUUAAACA; value = 0.659

Sample 2 — technique: protein-binding microarray; form: double-stranded DNA, one strand shown; sample: in vitro; concentration: 940 nM top; setting: 60-bp whole probe; with: salmon DNA 0.4 mg/ml; relative to: random background probes; reading: higher = stronger binding; endpoint: fitted relative affinity; constant ends, left off below: GCCTAGCAC … GTCTTGATTCGCTTGACGCTGCTG
Target: Interferon regulatory factor 5, full length, phosphomimetic (IRF5, Homo sapiens, UniProt Q13568-2, residues 1-514, S451D/S453D/S456D/S462D)
Oligonucleotide = GACGGACTGCTTATCCAGACGTGCTAG; value = -0.466 z-score
Oligonucleotide = TTAGAACTGGCGTATCGATTAGTGCTA; value = 0.838 z-score
Oligonucleotide = GACGATTTCCTTATCCTGACGTGCTAG; value = 0.67 z-score
Oligonucleotide = GACGATATCGGGTATTGAGACGTGCTA; value = -0.0132 z-score
Oligonucleotide = GACGGTATCGGTTTCGGAACGTGCTAG; value = 11.2 z-score
Oligonucleotide = GAAGCTTCCTCTCTGCCACTGTGCTAG; value = 0.163 z-score
Oligonucleotide = AACGGACTGGACACTGGGGACGTGCTA; value = -0.537 z-score
Oligonucleotide = TCACCTATAGGTTCAACACTGTGCTAG; value = -0.416 z-score
Oligonucleotide = GACGGTATCGAATTTCGGGACGTGCTA; value = 2.61 z-score
Oligonucleotide = GCAGGGCTCTCTTCTGCTTCCGTGCTA; value = -0.219 z-score
Oligonucleotide = GACGATGTCAGTTCCGAGACGTGCTAG; value = 0.0479 z-score
Oligonucleotide = GACGGACTGGGGACTGGGGACGTGCTA; value = -0.171 z-score
Oligonucleotide = GATGATTTCAGTTTCGAGACGTGCTAG; value = 4.71 z-score
Oligonucleotide = GTAGATTTCGGGACTGGATTAGTGCTA; value = 0.374 z-score
Oligonucleotide = GATGGTTTCGGTTCCGGGACGTGCTAG; value = 15.9 z-score
Oligonucleotide = TTCGGTTTCGGGTTTCGGTTAGTGCTA; value = 11.7 z-score
Oligonucleotide = TCAGGTCTGTTTCTGATACTGTGCTAG; value = 0.624 z-score
Oligonucleotide = GACGGTAACGGACTGGGGACGTGCTAG; value = -0.528 z-score
Oligonucleotide = TTAGATTTCGGGACAGGATTAGTGCTA; value = 0.894 z-score
Oligonucleotide = TTAGGAATCGGTATCGGTTAGTGCTAG; value = 5.78 z-score
Oligonucleotide = AGCAGTTGGACCTCTCAGCCAGTGCTA; value = -0.373 z-score

Sample 3 — technique: universal PBM; form: double-stranded DNA, one strand shown; sample: in vitro; concentration: not given; reading: higher = stronger binding; endpoint: E-score
Target: Sal-like protein 4, full length isoform B (SALL4, Homo sapiens, UniProt Q9UJQ4-2, residues 1-616)
Setting: 8-mer, flanks averaged, mean of replicates
Construct (chain): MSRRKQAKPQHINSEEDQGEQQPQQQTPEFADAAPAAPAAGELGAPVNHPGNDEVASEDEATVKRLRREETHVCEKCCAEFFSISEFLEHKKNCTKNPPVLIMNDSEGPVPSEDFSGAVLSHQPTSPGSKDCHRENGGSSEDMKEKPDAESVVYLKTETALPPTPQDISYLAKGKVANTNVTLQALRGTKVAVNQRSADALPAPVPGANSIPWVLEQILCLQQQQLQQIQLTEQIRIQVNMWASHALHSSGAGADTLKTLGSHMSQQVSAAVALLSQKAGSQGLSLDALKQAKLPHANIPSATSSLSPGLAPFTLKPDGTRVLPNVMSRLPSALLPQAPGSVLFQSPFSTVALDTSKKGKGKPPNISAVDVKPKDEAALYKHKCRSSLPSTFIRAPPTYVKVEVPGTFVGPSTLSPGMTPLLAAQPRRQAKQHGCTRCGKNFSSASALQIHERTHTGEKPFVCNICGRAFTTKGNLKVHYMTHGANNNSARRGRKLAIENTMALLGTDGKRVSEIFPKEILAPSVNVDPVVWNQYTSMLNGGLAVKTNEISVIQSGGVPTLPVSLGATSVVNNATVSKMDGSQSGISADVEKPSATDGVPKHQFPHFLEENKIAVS
Oligonucleotide = AAATACCG; value = 0.0798
Oligonucleotide = GTGCCTAA; value = 0.0838
Oligonucleotide = GCCGCGTA; value = -0.156
Oligonucleotide = AAAGGATT; value = 0.0994
Oligonucleotide = CGGGCGCA; value = -0.332
Oligonucleotide = CGCTTGAC; value = -0.179
Oligonucleotide = GCCGAAAA; value = -0.0237
Oligonucleotide = GCACCTCA; value = -0.16
Oligonucleotide = AGTCAACG; value = -0.0863
Oligonucleotide = CAAAAGTG; value = 0.0726
Oligonucleotide = AGGTACAC; value = -0.105
Oligonucleotide = ATTTTCAG; value = 0.269
Oligonucleotide = AAGAGGGC; value = -0.0531
Oligonucleotide = CGAAAAAA; value = 0.238
Oligonucleotide = AGTCAGAT; value = 0.0615
Oligonucleotide = AGGAGTAT; value = 0.0156
Oligonucleotide = TACCCCTA; value = 0.01
Oligonucleotide = AGAGCCGG; value = -0.295
Oligonucleotide = CCTCAGAC; value = -0.112
Oligonucleotide = AGTGCTCG; value = -0.232
Oligonucleotide = CGTGCGCA; value = -0.184
Oligonucleotide = CACTACTC; value = -0.0565
Oligonucleotide = GTGGCCTA; value = -0.201
Oligonucleotide = GGACGACC; value = -0.374
Oligonucleotide = CCCTTTCG; value = 0.0805

Sample 4 — technique: aptamer microarray, sandwich; form: DNA with 2'F-ANA; sample: in vitro; concentration: 200 nM; with: Cy3 exosite-II aptamer, 400 nM; reading: higher = stronger binding; endpoint: mean fluorescence intensity; oligonucleotide: GGTTGGTGTGGTTGG
Target: Prothrombin, mature alpha-thrombin (F2, Homo sapiens, UniProt P00734)
Setting: whole 15-mer aptamer, many near background
Modification = 2'F-ANA at 1 5 6 8 12 13 14; value = 47 a.u.
Modification = 2'F-ANA at 2 8 9 10 13 14 15; value = 88.7 a.u.
Modification = 2'F-ANA at 1 4 6 9 10 12; value = 58 a.u.
Modification = 2'F-ANA at 3 4 5 6 7 8 9 10 14 15; value = 48.2 a.u.
Modification = 2'F-ANA at 2 4 6 8 11 12 13 15; value = 342 a.u.
Modification = 2'F-ANA at 1 3 5 6 7 12 13; value = 86.9 a.u.
Modification = 2'F-ANA at 1 3 5 6 7 10 11 14; value = 47.5 a.u.
Modification = 2'F-ANA at 3 4 9 11 12 13 14 15; value = 321 a.u.
Modification = 2'F-ANA at 1 3 5 6 8 10 12 13 15; value = 47.8 a.u.
Modification = 2'F-ANA at 1 7 8 11 13 15; value = 171 a.u.
Modification = 2'F-ANA at 1 4 7 9 14 15; value = 50.4 a.u.
Modification = 2'F-ANA at 5 9 11 12 13 14 15; value = 46.7 a.u.
Modification = 2'F-ANA at 1 3 8 9 11 13 14; value = 89.4 a.u.
Modification = 2'F-ANA at 3 8 14; value = 667 a.u.
Modification = 2'F-ANA at 1 4 7 10; value = 51.8 a.u.
Modification = 2'F-ANA at 1 2 3 5 7 8 10; value = 47.2 a.u.
Modification = 2'F-ANA at 4 6 10 11 13 14 15; value = 51.5 a.u.

Sample 5 — technique: protein binding microarray; form: double-stranded DNA, one strand shown; sample: in vitro; concentration: not given; relative to: not given; reading: higher = stronger binding; endpoint: E-score
Target: Histone acetyltransferase KAT6A, winged helix 1, GST fusion (KAT6A, Homo sapiens, UniProt Q92794, residues 1-85)
Setting: 8-mer, flanks averaged, mean of 2 arrays, mostly near background
Target sequence (chain): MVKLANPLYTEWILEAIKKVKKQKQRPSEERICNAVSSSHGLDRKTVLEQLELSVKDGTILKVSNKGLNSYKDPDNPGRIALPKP
Oligonucleotide = CCACGGAG; value = 0.129
Oligonucleotide = ATGCGAGC; value = 0.00464
Oligonucleotide = AACTTCGT; value = -0.1
Oligonucleotide = CGAATTTA; value = -0.126
Oligonucleotide = GACCCTAC; value = -0.0242
Oligonucleotide = AAACCAGT; value = -0.182
Oligonucleotide = ACCTCCAA; value = -0.264
Oligonucleotide = GAGCGGTA; value = 0.286
Oligonucleotide = CATCCGTA; value = 0.192
Oligonucleotide = CGAGTTTC; value = -0.0961
Oligonucleotide = AGACAGCC; value = 0.033
Oligonucleotide = ACCTGGAA; value = -0.207
Oligonucleotide = GGCGTAAA; value = 0.174
Oligonucleotide = AATCACTC; value = -0.269
Oligonucleotide = AAACCATA; value = 0.0473
Oligonucleotide = AGTATGAG; value = -0.172
Oligonucleotide = GATTCCAC; value = -0.144
Oligonucleotide = CTGGGCTA; value = -0.132
Oligonucleotide = ACTGGGCG; value = 0.0575
Oligonucleotide = GACGAAAC; value = -0.0349
Oligonucleotide = CTTGACCA; value = -0.237
Oligonucleotide = CTGGGAAG; value = -0.116
Oligonucleotide = CCACTGGA; value = -0.212
Oligonucleotide = CCCAAAGA; value = -0.315
Oligonucleotide = AGTTATGA; value = -0.109

Repeated from above (sample 5):
Oligonucleotide = ACTGGGCG; value = 0.0575
Oligonucleotide = GATTCCAC; value = -0.144
Oligonucleotide = ACCTGGAA; value = -0.207
Oligonucleotide = GAGCGGTA; value = 0.286
Oligonucleotide = CGAATTTA; value = -0.126
Oligonucleotide = AAACCATA; value = 0.0473
Oligonucleotide = AACTTCGT; value = -0.1
Oligonucleotide = CCACGGAG; value = 0.129
